Published values pooled from the literature.
Protocols differ between the studies behind these lines. Several values in a cell are separate wells, animals, samples, runs or records. ± marks the error that the study gave.
UniProt P20813, sequence (whole entry, looked up): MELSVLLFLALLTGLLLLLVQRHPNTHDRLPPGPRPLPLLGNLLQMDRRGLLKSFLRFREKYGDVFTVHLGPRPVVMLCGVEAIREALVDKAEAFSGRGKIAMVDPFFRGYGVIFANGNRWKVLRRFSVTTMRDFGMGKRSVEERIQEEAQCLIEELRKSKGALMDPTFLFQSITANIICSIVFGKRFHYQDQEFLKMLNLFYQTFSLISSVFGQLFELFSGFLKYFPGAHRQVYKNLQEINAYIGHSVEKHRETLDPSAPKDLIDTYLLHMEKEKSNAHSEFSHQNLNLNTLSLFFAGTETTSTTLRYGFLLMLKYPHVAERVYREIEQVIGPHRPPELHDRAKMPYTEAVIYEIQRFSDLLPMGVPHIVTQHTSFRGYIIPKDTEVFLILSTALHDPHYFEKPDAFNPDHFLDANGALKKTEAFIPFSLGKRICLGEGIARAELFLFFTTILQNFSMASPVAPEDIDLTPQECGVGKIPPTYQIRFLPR
UniProt P02769, sequence (whole entry, looked up): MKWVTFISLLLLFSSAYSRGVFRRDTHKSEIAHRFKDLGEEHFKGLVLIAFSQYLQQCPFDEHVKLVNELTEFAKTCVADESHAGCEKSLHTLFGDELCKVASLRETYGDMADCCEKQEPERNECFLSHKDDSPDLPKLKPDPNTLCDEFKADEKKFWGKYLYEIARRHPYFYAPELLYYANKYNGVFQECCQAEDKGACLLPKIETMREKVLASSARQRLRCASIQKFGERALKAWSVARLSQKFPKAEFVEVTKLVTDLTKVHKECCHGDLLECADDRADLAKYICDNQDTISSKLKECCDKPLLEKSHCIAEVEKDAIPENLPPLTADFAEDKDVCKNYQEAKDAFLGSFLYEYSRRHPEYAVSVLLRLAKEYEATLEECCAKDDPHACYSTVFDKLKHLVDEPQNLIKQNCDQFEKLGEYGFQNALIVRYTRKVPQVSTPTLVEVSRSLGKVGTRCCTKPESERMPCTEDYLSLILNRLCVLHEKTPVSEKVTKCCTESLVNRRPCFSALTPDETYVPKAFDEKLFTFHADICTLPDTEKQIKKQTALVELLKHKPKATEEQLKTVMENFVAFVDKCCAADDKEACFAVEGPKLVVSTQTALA

N#C[C@@H]1CC(F)(F)CN1C(=O)CNC(=O)c1ccnc2c(NC(=O)[C@@H](N)CCCCNC(=O)CCOCCOCCOCCOCCOCCOCCNC(=O)CN3CCN(CC(=O)[O-])CCN(CC(=O)[O-])CCN(CC(=O)[O-])CC3)cccc12.[177Lu+3] — tracer uptake (U-87 MG tumour model; host not given, liver; 48 h, tumour-bearing): 0.17 %ID/g
OC(Cc1cc(-c2ccc(C(O)C(F)(F)F)s2)sc1-c1ccc(-c2sc(-c3ccc(C(O)C(F)(F)F)s3)cc2CC(O)C(F)(F)F)s1)C(F)(F)F (stereo not shown) — amount in cell extract (primary human fetal neurons; LC-MS/MS; 4 µM, 15 min, replicate 2): 0.06 nmol and 0.04 nmol and 0.03 nmol
CNC(=O)C1CCCN(C(=O)C2CC3CCC2N3C(=O)[C@@H]2C[C@@H](O)CN2C(=O)NCc2cccc(Cl)c2F)C1 (mixture of isomers) — remaining activity (Cytochrome P450 2B6 (CYP2B6, Homo sapiens, UniProt P20813); preincubation without NADPH; human; 5.56 µM; reference: negative control): 105% and 100% and 110%
N#C[C@@H]1CCCN1C(=O)CNC(=O)c1ccnc2ccc(OCCCN3CCN(C(=O)CCc4ccc(O)c(CN5CCN6CC(=O)[O][Al-]([18F])([O]C(=O)C5)[O]c5ccc(CCC(=O)N7CCN(CCCOc8ccc9nccc(C(=O)NCC(=O)N%10CCC[C@H]%10C#N)c9c8)CC7)cc5C6)c4)CC3)cc12 (stereo partly shown) — tracer uptake (U-87 MG tumour model; host not given, blood; 1 h, tumour-bearing): 6.75 %ID/g
CCN(CC)CC#CCNc1ccnc2cc(Cl)ccc12 — revertants (Salmonella typhimurium; mini-Ames test; TA98; 125.0 µg/well, without S9): 9 revertants/well and 3 revertants/well
Nc1nc(-c2ccccc2)nc2[nH]nc(Nc3ccc(OC(F)(F)F)cc3)c12 — CC50 (HeLa Ohio; 72 h): > 129 µM
N#C[C@@H]1CC(F)(F)CN1C(=O)CNC(=O)c1ccnc2c(NC(=O)CCOCCOCCOCCOCCOCCOCCNC(=O)[C@H](CCCCNC(=O)CN3CCN(CC(=O)[O-])CCN(CC(=O)[O-])CCN(CC(=O)[O-])CC3)NC(=O)CCCc3ccc(I)cc3)cccc12.[177Lu+3] — tracer uptake (U-87 MG tumour model; host not given, stomach; 1 h, tumour-bearing): 0.99 %ID/g
CNc1nc(-c2ccccc2)nc2[nH]nc(Nc3ccc(F)cc3)c12 — CC50 (HeLa Ohio; 72 h): 70.9 µM
CC(C)Cc1ccc(C(C)C(=O)N[C@@H](CCCCNC(=O)CCOCCOCCOCCOCCOCCOCCNC(=O)CN2CCN(CC(=O)[O-])CCN(CC(=O)[O-])CCN(CC(=O)[O-])CC2)C(=O)Nc2cccc3c(C(=O)NCC(=O)N4CC(F)(F)C[C@H]4C#N)ccnc23)cc1.[177Lu+3] (stereo partly shown) — tracer uptake (U-87 MG tumour model; host not given, pancreas; 48 h, tumour-bearing): 0.37 %ID/g
Nc1nc(-c2ccccc2)nc2[nH]nc(Nc3cccnc3)c12 — CC50 (HeLa Ohio; 72 h): > 165 µM
C=CC(=O)Nc1cc(Nc2nccc(-c3cn(C)c4ccccc34)n2)c(OCC(F)(F)F)nc1N(C)CCN(C)C — induction (human hepatocytes lot HC3-31; CYP1A2 enzyme activity, inducer; 10 µM; reference: omeprazole 100 µM): 39.4%
CN1CCN(c2ccc3[nH]c(-c4ccc5[nH]c(-c6ccc(OCCCCNC(=O)c7cccc8c7C(=O)OC87c8ccc(N(C)C)cc8C(C)(C)c8cc(N(C)C)ccc87)cc6)nc5c4)nc3c2)CC1 — Kd (Albumin (ALB, Bos taurus, UniProt P02769); binding, fluorescence titration; PBS; 1 h): 132 ± 18 µM
C/C(N)=N/C(=N\S(=O)(=O)c1ccc(C(F)(F)F)cc1)N1C[C@H](c2ccccc2)C(c2ccc(Cl)cc2)=N1 — AUC(0-inf) (C57BL/6 mouse male, adipose tissue; intravenous, 10 mg/kg): 59300 ng·h/mL
Nc1nc(-c2ccccc2C(F)(F)F)nc2[nH]nc(Nc3ccccc3)c12 — CC50 (HeLa Ohio; 72 h): 1.1 µM
CN(Cc1ccccc1)C(=O)CN1CCN(CC(=O)[O-])CCN(CC(=O)[O-])CC1.[44Sc+3] — tracer uptake (mouse, blood; intravenous, 1 h): 3.22 %ID/g
Nc1nc(-c2ccc(F)cc2F)nc2[nH]nc(Nc3ccc(F)cc3)c12 — CC50 (HeLa Ohio; 72 h): > 140 µM
CC(C)OCCOCc1ccc(OCC(O)CN(N=O)C(C)C)cc1 (stereo not shown) — revertant fold increase (Salmonella typhimurium; Ames test; TA1537; 158 µg/plate, 30 % rat S9; reference: solvent control): 0.8 fold
CN(Cc1ccccc1)C(=O)CN1CCN(CC(=O)[O-])CCN(Cc2cccc(C(=O)[O-])n2)CC1.[177Lu+3] — tracer uptake (mouse, brain; intravenous, 1 h): 0.08 %ID/g
Nc1ncnc2[nH]nc(Nc3ccc(F)c(F)c3)c12 — CC50 (HeLa Ohio; 72 h): > 191 µM
O=C(Nc1cnccc1-c1ccc([18F])nc1)c1ccnc(NC(=O)C2CC2)c1 — SUV (FVB/NJ mice (both sexes), skin; intravenous, dose not given, 120 min): 0.062
COc1cccc(OC)c1-c1cc(C(=O)NC2(C(=O)O)C3CC4CC(C3)CC2C4)nn1-c1ccc(C(=O)N(C)CCCN(C)CCCN(C)C(=O)[C@H](CCCCNC(=O)[C@H](CC(C)C)NC(=O)C2OC2C(=O)O)NC(=O)CN2CCN(CC(=O)[O-])CCN(CC(=O)[O-])CCN(CC(=O)[O-])CC2)cc1C(C)C.[177Lu+3] (mixture of isomers) — tracer uptake (HT-29 tumour model; host not given, bone; 24 h, tumour-bearing): 1.1 %ID/g
Nc1nc(-c2ccccc2C(F)(F)F)nc2[nH]nc(Nc3ccc(Cl)cc3)c12 — CC50 (HeLa Ohio; 72 h): 1.9 µM
O=C([O-])CN1CCN(CC(=O)[O-])CCN(Cc2cccc(C(=O)[O-])n2)CC1.[44Sc+3] — tracer uptake (mouse, bone; intravenous, 1 h): 1.17 %ID/g
CN(C)c1nc(-c2ccccc2)nc2[nH]nc(Nc3ccc(F)cc3)c12 — CC50 (HeLa Ohio; 72 h): > 144 µM
O=C1C2CC3CC1CC(C(=O)N1CCN(c4ccc([N+](=O)[O-])c5ncccc45)CC1)(C3)C2 — revertant fold increase (Salmonella typhimurium; Ames test; TA1535; 0.02 µg/well, without S9; reference: vehicle): 1.9

A few entries again:
CNc1nc(-c2ccccc2)nc2[nH]nc(Nc3ccc(F)cc3)c12 — CC50 (HeLa Ohio; 72 h): 70.9 µM
CC(C)Cc1ccc(C(C)C(=O)N[C@@H](CCCCNC(=O)CCOCCOCCOCCOCCOCCOCCNC(=O)CN2CCN(CC(=O)[O-])CCN(CC(=O)[O-])CCN(CC(=O)[O-])CC2)C(=O)Nc2cccc3c(C(=O)NCC(=O)N4CC(F)(F)C[C@H]4C#N)ccnc23)cc1.[177Lu+3] (stereo partly shown) — tracer uptake (U-87 MG tumour model; host not given, pancreas; 48 h, tumour-bearing): 0.37 %ID/g
